{"data": "Assay results from different studies", "note": "Each numbered part is a random draw from the data of one study; scales do not carry over between parts. Positions count from the first letter of the parent shown."}
{"data": "Study 1", "target": "Histone acetyltransferase KAT6A, winged helix 1, GST fusion (KAT6A, Homo sapiens, UniProt Q92794, residues 1-85)", "technique": "protein binding microarray", "molecule type": "double-stranded DNA, one strand shown", "matrix": "in vitro", "tested at": "not given", "setting": "8-mer, flanks averaged, mean of 2 arrays, mostly near background", "reference": "not given", "direction": "higher = stronger binding", "Target sequence (chain)": "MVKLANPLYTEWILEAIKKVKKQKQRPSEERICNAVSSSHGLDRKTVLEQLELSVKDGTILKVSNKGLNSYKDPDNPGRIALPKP"}
{"Sequence": "GGTACCCA", "E-score": -0.114}
{"Sequence": "ATTGGAAA", "E-score": -0.239}
{"Sequence": "GCATAGTA", "E-score": 0.0189}
{"Sequence": "GAGCCTTA", "E-score": -0.106}
{"Sequence": "CTCTAAAA", "E-score": -0.0138}
{"Sequence": "GATTCAAC", "E-score": -0.0375}
{"Sequence": "GAAGTTCA", "E-score": -0.095}
{"Sequence": "GGATAGCA", "E-score": -0.0036}
{"data": "Study 2", "target": "Protein C-ets-1 (ETS1, Homo sapiens, UniProt P14921, residues 1-441, K379A, full length assumed)", "technique": "protein-binding microarray", "molecule type": "double-stranded DNA, one strand shown", "matrix": "in vitro", "tested at": "not given", "setting": "k-mer, scored over probes, only values ≥0.25", "direction": "higher = stronger binding", "sequence of UniProt P14921 (whole entry, unmodified, looked up)": "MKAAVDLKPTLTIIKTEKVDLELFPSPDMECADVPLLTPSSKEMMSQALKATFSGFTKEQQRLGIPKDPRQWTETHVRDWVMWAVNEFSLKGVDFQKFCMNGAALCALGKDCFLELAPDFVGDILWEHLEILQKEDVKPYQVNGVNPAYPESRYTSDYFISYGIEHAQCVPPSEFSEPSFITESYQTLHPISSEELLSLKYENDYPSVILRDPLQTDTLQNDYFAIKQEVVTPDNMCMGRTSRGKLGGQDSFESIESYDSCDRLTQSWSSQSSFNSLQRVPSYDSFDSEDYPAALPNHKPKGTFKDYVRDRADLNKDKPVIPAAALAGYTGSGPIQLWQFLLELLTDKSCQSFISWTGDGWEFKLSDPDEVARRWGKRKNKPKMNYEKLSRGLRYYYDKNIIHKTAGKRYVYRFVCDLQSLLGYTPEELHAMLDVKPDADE"}
{"Sequence": "GCCGGGAA", "E-score": 0.303}
{"Sequence": "CCCCACCC", "E-score": 0.314}
{"Sequence": "AGTCCCGG", "E-score": 0.355}
{"Sequence": "ACGGTAAT", "E-score": 0.303}
{"Sequence": "ACCCGGGA", "E-score": 0.304}
{"Sequence": "GTATAGTA", "E-score": 0.279}
{"Sequence": "ACATGATA", "E-score": 0.252}
{"Sequence": "AACCGGAT", "E-score": 0.424}
{"data": "Study 3", "target": "Ras GTPase-activating protein-binding protein 1, C-terminal RGG region (G3BP1, Homo sapiens, UniProt Q13283)", "technique": "RNA Bind-n-Seq", "molecule type": "RNA", "matrix": "in vitro", "tested at": "1 µM", "setting": "whole 134-nt RNA, ends assumed", "added": "150 mM KCl", "reference": "input library", "direction": "higher = stronger binding", "constant ends, left off below": "GGGAGUUCUACAGUCCGACGAUC … UGGAAUUCUCGGGUGUCAAGG", "sequence of UniProt Q13283 (whole entry, looked up)": "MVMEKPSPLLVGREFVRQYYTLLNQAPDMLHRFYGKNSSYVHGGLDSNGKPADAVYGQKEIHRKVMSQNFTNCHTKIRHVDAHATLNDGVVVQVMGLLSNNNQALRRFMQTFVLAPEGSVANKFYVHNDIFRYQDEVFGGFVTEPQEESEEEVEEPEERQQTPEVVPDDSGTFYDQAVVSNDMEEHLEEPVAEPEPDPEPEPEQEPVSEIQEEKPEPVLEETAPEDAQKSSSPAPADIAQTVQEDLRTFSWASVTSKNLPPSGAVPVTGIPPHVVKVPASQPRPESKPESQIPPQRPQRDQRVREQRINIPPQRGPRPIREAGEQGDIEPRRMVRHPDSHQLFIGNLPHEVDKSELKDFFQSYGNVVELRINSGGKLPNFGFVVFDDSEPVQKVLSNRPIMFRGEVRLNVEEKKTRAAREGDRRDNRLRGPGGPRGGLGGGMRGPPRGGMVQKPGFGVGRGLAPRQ"}
{"Sequence": "UUGUUUUUUUUUUGUUCUUUUUUUCCAUGUCACUAAAGGCCCUCGGGACCAAGGAUCACGUCAUGACUCCGGUGAGUUCACACGUGGUGG", "log2 enrichment": -1.01}
{"Sequence": "ACCAUGCAGGUGGGCAUCUUUGGGAAGUGAAACAAGGGGGGGAUAGGGAGGGGGGUAACACUUUGGGAACAGGUGGUCCCAGGUCGUUUC", "log2 enrichment": -1.27}
{"Sequence": "GUCCUGUGCUACACAUCGUAUGUACCGAAUCGGAAAAAAAGGAAAAAAAGGUUUUUGGAAAGUAUUAUGUUACGCCGUUCGGAUCUGCAC", "log2 enrichment": -1.81}
{"Sequence": "GCAGGAAGUAAAAACAAAUGGAAAUGCUUCGGAUAGUGGCAGGGAUGGGGGUUGCUAAGGAAAGGGUGGGAUGGGAGUGGGUAAAGAGUU", "log2 enrichment": 1.2}
{"Sequence": "AAGUCCUGUGCUACACAUCGUAUGUACCGAAUCGGUUUUUUUGGUUUGGAAAAAGGAAAGUAUUAUGUUACGCCGUUCGGAUCUGCACUU", "log2 enrichment": -2.19}
{"Sequence": "UGGGAGGUGGAUUUUGUUUAUUUUUUUAGCUCAUUUCCAGGGGUGGGAAUUUUUUUUUAAUAUGUGUCAUGAAUAAAGUUGUUUUUCAAA", "log2 enrichment": 4.4}
{"Sequence": "GUCCUGUGCUACACAUCGUAUGUACCGAAUCGGGGAAAAAGGGGAAAGGGGAAAGGGGAAAGUAUUAUGUUACGCCGUUCGGAUCUGCAC", "log2 enrichment": 3.18}
{"Sequence": "GCAGGAAGUAAAAACAAAUAAAAAUGCUUCGGAUAGUGGCAGGGGUGGGGGUUGCUAAGGAAAGGGUGGGAUGGGAGUGGGUAAAGAGUU", "log2 enrichment": 1.59}
{"data": "Mixed results", "starting sequence": "viral docking peptide; KGVKRKLFAEDSS; partner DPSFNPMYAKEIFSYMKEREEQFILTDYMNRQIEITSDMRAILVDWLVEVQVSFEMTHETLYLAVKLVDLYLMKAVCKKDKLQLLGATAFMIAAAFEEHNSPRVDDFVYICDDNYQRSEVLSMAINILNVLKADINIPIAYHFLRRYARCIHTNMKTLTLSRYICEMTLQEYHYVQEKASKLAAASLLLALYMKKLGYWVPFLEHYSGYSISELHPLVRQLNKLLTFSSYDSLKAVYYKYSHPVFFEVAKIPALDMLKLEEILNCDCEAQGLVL"}
{"Substitution": "KGVKHKLFAEDSS [R5H]", "target": "CCNB3, cyclin fold, Cln2 fusion (human)", "assay": "yeast growth competition, sequencing", "test system": "yeast", "conditions": "strong parent motif", "how to read": "reference: not given, higher = stronger binding", "endpoint": "normalised enrichment score", "result": 0.129}
